Experimental data gathered from unrelated publications.
Every numbered part comes from another study and shows a few of its results, in no order. Substitutions count along the parent as printed.

Series 1
Target: CEBPA, bZIP domain (human)
Technique: DHFR protein complementation
Sample: yeast
Notes: single substitutions, most at no-binding floor
Relative to: wild-type JUN-FOS pair
Reading: higher = stronger binding
Starting sequence: JUN, bZIP domain (human); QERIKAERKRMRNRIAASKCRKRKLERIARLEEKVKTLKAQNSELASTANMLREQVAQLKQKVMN; partner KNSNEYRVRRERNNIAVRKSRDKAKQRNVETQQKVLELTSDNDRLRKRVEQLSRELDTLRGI
Substitution | binding fitness
K39I | -1.4 natural log
N42A | -1.39 natural log
L38V | -1.5 natural log
T37L | -1.34 natural log
T37M | -1.39 natural log
Q55F | -1.6 natural log
K39S | -1.4 natural log
K36M | -1.22 natural log
R30C | -1.4 natural log
A40P | -1.55 natural log
Q55P | -1.52 natural log
T48Y | -1.47 natural log
M51D | -1.35 natural log
L45Q | -1.48 natural log
A49T | -1.46 natural log
A57Y | -1.4 natural log
V56E | -1.45 natural log
I28S | -1.47 natural log

Series 2
Target: Fragile X messenger ribonucleoprotein 1, C-terminal low-complexity region (Fmr1, Mus musculus, UniProt P35922)
Technique: RNA Bind-n-Seq
Form: RNA
Sample: in vitro
Concentration: 200 nM
Notes: whole 134-nt RNA, ends assumed
Added: 150 mM KCl
Relative to: input library
Reading: higher = stronger binding
Shared flanks, not repeated: GGGAGUUCUACAGUCCGACGAUC … UGGAAUUCUCGGGUGUCAAGG
Sequence | log2 enrichment
UAACUUUAGAGGAGGAUCUGAGGGAUAUGGCAGUGGACGUGGAUUUGGGGAUGGCUAUAAUGGGUAUGGAGGAGGACCUGGAGGUGGCAA | 0.34
UAACUUUAGAGGAGGAUCUGAUGGAUAUGGCAGUGGACGUGGAUUUGGGGAUGGCUAUAAUGGGUAUGGAGGAGGACCUGGAGGUGGCAU | 0.202
CCUGUGCUACACAUCGUAUGUACCGAAUCGGGUUUUUUUGGGGUUUUUUUGGUUUUUUUGGAAAGUAUUAUGUUACGCCGUUCGGAUCUG | -0.609
CCUCAAGUCCUGUGCUACACAUCGUAUGUACCGAAUCGGUUGGUUGGUUGGGAAAGUAUUAUGUUACGCCGUUCGGAUCUGCACUUCCAG | 0.213
UCCUGUGCUACACAUCGUAUGUACCGAAUCGGUUUUUUGGGUUUUUUGGGGUUUUUUGGGAAAGUAUUAUGUUACGCCGUUCGGAUCUGC | 0.000439
CUCAAGUCCUGUGCUACACAUCGUAUGUACCGAAUCGGAAAAAAAGGUGGAGGAAAGUAUUAUGUUACGCCGUUCGGAUCUGCACUUCCA | -0.143
CAAGUCCUGUGCUACACAUCGUAUGUACCGAAUCGGGGAAAGGGGUGGGGUGGGGAAAGUAUUAUGUUACGCCGUUCGGAUCUGCACUUC | 1.32
ACCAUGCAGGUGGGCAUCUUUGGGAAGUGGGGCAAGGGGGGGAUAGGGAGGGGGGUAACACUUUGGGAAUAGGUGGUCCCAGGUCGUUUC | 0.418
UAACUUUAGAGGAGGAUCUGAUGGAUAUGGCAGGGGACGUGGAUUUGGGGAUGGCUAUAAUGGGUAUGGAGGAGGACCUGGAGGUGGCAA | 0.34
CAAGUCCUGUGCUACACAUCGUAUGUACCGAAUCGGGAAAAAGGGUGGGAAAGGGAAAGUAUUAUGUUACGCCGUUCGGAUCUGCACUUC | 0.721
UGUGCUACACAUCGUAUGUACCGAAUCGGGGCCCCCCCGGGGCCCCCCCGGCCCCCCCGGGGAAAGUAUUAUGUUACGCCGUUCGGAUCU | -1.59
CAAGUCCUGUGCUACACAUCGUAUGUACCGAAUCGGGUUUGGGUGGGAAAAAGGGAAAGUAUUAUGUUACGCCGUUCGGAUCUGCACUUC | 1.02
CCUGUGCUACACAUCGUAUGUACCGAAUCGGGGUUUGGGGAAAAAGGGGUUUUUUUGGGGAAAGUAUUAUGUUACGCCGUUCGGAUCUGC | 0.298
UCAAGUCCUGUGCUACACAUCGUAUGUACCGAAUCGGCCCGGGCCCGGCCCGGGAAAGUAUUAUGUUACGCCGUUCGGAUCUGCACUUCC | -0.759

Series 3
Target: UBE2Z UBC core domain (UniProt Q9H832)
Technique: yeast two-hybrid
Sample: yeast
Notes: mostly zero background
Relative to: not given
Reading: higher = stronger interaction
B1: NFX1 RING domain (UniProt Q12986); chain IEQLTTEKYECMVCCELVRVTAPVWSCQSCYHVFHLNCIKKWARSPASQADGQSGWRCPACQNVSAHVPNTY
B2: RNF182 RING domain (UniProt Q8N6D2); chain AESQASDELECKICYNRYNLKQRKPKVLECCHRVCAKCLYKIIDFGDSPQGVIVCPFCRFETCLPDDEV
B3: HLTF RING domain (UniProt Q14527); chain LILSSGSDEECAICLDSLTVPVITHCAHVFCKPCICQVIQNEQPHAKCPLCRNDIHEDNLLE
B4: RNF103 RING domain (UniProt O00237); chain WPADMLHCTECVVCLENFENGCLLMGLPCGHVFHQNCIVMWLAGGRHCCPVCRWPSYKKKQPY
B5: VPS8 RING domain (UniProt Q8N3P4); chain TRGLNPKQDYCSICLQQYKRRQEMADEIIVFSCGHLYHSFCLQNKECTVEFEGQTRWTCYKCSSSNKVGKLSE
B6: ZMYND11 RING domain (UniProt Q15326); chain DEIDWETENHDWYCFECHLPGEVLICDLCFRVYHSKCLSDEFRLRDSSSPWQCPVCRSIKKKNTNKQEM
B7: MID2 RING domain (UniProt Q9UJV3); chain KMETLESELTCPICLELFEDPLLLPCAHSLCFSCAHRILVSSCSSGESIEPITAFQCPTCRYVISLNHRGL
B8: ZNRF4 RING domain (UniProt Q8WWF5); chain VRTFTWHNDLCAICLDEYEEGDQLKILPCSHTYHCKCIDPWFSQAPRRSCPVCKQSVAATEDSF
Construct (chain): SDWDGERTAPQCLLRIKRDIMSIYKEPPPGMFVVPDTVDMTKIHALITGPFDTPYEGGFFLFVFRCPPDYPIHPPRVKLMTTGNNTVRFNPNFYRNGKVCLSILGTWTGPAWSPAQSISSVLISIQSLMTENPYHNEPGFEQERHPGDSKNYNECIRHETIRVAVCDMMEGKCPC
Sequence | lacZ reporter activity
B1 (NFX1 RING domain) | 0
B2 (RNF182 RING domain) | 0
B3 (HLTF RING domain) | 17100
B4 (RNF103 RING domain) | 7950
B5 (VPS8 RING domain) | 0
ASPKIFQKTKCSICNSALELPSVHFLCGHSFHQHCFESYSESDADCPTCLPENRKVMDMI (VPS11 RING domain (UniProt Q9H270)) | 0
B6 (ZMYND11 RING domain) | 0
LVKDFNPYITCYICKGYLIKPTTVTECLHTFCKTCIVQHFEDSNDCPRCGNQVHETNPLE (PCGF5 RING domain (UniProt Q86SE9)) | 0
DDVLTKDAGECVICLEELLQGDTIARLPCLCIYHKSCIDSWFEVNRSCPEHPAD (ZNRF1 RING domain (UniProt Q8ND25)) | 0
B7 (MID2 RING domain) | 0
B8 (ZNRF4 RING domain) | 0
EIKEYKARLTCPCCNTRKKDAVLTKCFHVFCFECVRGRYEARQRKCPKCNAAFGAHDFHR (RNF40 RING domain (UniProt O75150)) | 0

Series 4
Target: ABI1, truncated, D143A, DHFR fusion (Arabidopsis thaliana)
Technique: DHFR PCA, deep sequencing
Sample: yeast
Notes: methotrexate growth selection, single substitutions
Added: (+)-ABA 0.11 µM
Relative to: wild-type fitted maximum
Reading: higher = stronger binding
Starting sequence: PYL1, truncated, DHFR fusion (Arabidopsis thaliana); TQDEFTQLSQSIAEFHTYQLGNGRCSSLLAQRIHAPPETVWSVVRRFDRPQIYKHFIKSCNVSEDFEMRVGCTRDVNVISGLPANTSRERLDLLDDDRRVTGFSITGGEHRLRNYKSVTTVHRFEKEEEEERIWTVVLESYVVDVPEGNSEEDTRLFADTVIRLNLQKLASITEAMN
Substitution | relative binding score
G81Y | -3.13%
A175Q | 40.5%
H55W | 46%
V70P | 39.4%
I12E | -2.92%
M176D | 13.7%
I79Y | 33.7%
S42K | 20.7%
T39L | 51.2%
V44S | -1.56%
T173C | 71%
S140I | -0.564%
V136R | 0.806%
E174K | -1.13%
H16W | -2.33%

Series 5
Target: Histone acetyltransferase KAT6A, winged helix 1, GST fusion (KAT6A, Homo sapiens, UniProt Q92794, residues 1-85)
Technique: protein binding microarray
Form: double-stranded DNA, one strand shown
Sample: in vitro
Concentration: not given
Notes: 8-mer, flanks averaged, mean of 2 arrays, mostly near background
Relative to: not given
Reading: higher = stronger binding
Target sequence (chain): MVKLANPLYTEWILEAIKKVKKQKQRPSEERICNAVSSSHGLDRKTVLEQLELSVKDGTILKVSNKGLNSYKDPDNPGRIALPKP
Sequence | E-score
CCTATTCA | -0.0807
TCTATAAA | -0.281
GCTGCGCA | 0.248
CCTGACAC | -0.196
CCCCGTCA | 0.193
GCAAACGA | -0.151
CGAGGATC | -0.102
GAGACAGC | -0.0196
ACTCCTGG | -0.131
AGTAACAG | -0.0372
CGTAGATA | 0.0824
AAATGGAA | -0.194
ACACTGAA | -0.212
GCCTGAAA | 0.00189
ACGTCCCC | 0.0188
GTATTCCA | -0.139
ATGCCTTC | -0.266
TCCTTCAA | -0.327
GTGGTCAA | -0.251
ATAAACTG | -0.0623
AGTCGTTG | -0.0441

Series 6
Target: CCND3, cyclin fold, Cln2 fusion (human)
Technique: yeast growth competition, sequencing
Sample: yeast
Notes: weak parent motif
Relative to: not given
Reading: higher = stronger binding
Starting sequence: DNAH7 docking peptide (human); HELFQRLDFDNDG
Substitution | normalised enrichment score
N11A | -0.244
L7A | -0.315
F9A | -0.000274
F4A | -0.186
E2A | 0.205
D12A | -0.0768
D8A | 0.248

Repeated from above (series 5):
Sequence | E-score
CCTATTCA | -0.0807
TCTATAAA | -0.281
GCTGCGCA | 0.248
CCTGACAC | -0.196
CCCCGTCA | 0.193
GCAAACGA | -0.151
CGAGGATC | -0.102
GAGACAGC | -0.0196
